Published values pooled from the literature.
Each line is one published result; not all experiments were run side by side. Several values in a cell are separate wells, animals, samples, runs or records.
Target: Mitogen-activated protein kinase kinase kinase 2 (MAP3K2, Homo sapiens, UniProt Q9Y2U5)

| SMILES | test | system | setting | how to read | endpoint | result |
| --- | --- | --- | --- | --- | --- | --- |
| C=CC(=O)N1Cc2nc(-c3cc(-c4cc(Cl)cnc4Cl)c(F)cc3F)n(-c3ccncn3)c2C1 | cell-free assay, inhibitor |  | 1 µM |  | inhibition | -2% |
| CNC(=O)C1CCN(c2cc(C)c(F)cc2NC(=O)c2ccc(-c3cc(O)ccc3C)c(C)c2)CC1 | binding, competition with immobilised ligand |  | 1 µM |  | remaining binding | 92% |
| N[C@H]1CC[C@H](Nc2nccc(-c3cccnc3Oc3ccc(NC(=O)NC4CC4)c4ccccc34)n2)CC1 | kinobead competition pulldown | HEK293/HCT116 lysate mixture | 10 µM, 1 h, 4 °C | lower = stronger competition | log2 LFQ intensity | 26.8 and 26.9 and 26.7 |
| CNC1C[S+]2CC[S+]3CC[S+](C1)[Ru-4]321([N]=C=S)[n]2c3ccc(OC)cc3c3c4c(c5cc(F)c[n+]1c5c32)C(=O)NC4=O (stereo not shown) | KinomeScan |  | 0.1 µM | relative to: untreated | remaining binding | 100% |
| C=CC(=O)Nc1cc(-c2nn(C3CCN(CCNC(=O)[C@H](C)CCC45CC6CC(CC(C6)C4)C5)CC3)c3ncnc(N)c23)ccc1Oc1ccccc1 | inhibitor, KiNativ profiling | biochemical | 2 µM |  | inhibition | 18.3% |
| CN1CCN(Cc2ccc(-c3ccc(CO[C@H]4CCC[C@@H]4NC(=O)c4cc(-c5cnn(C)c5)cnc4N)cc3)cc2)CC1 | enzyme activity, inhibitor |  | 0.1 µM |  | inhibition | -3% |
| Cc1ccc(-c2c(/C=C(\C#N)C(=O)NC(C)C)n(CCCO)c3ncnc(N)c23)cc1 | cell-free assay, competition with immobilised ligand |  | 1 µM |  | remaining binding | 66% |
| COc1cc(Nc2nccc(-c3cnn4nc(OC)ccc34)n2)cc(C(F)(F)F)c1 | binding, competition with immobilised ligand |  | 1 µM |  | remaining binding | 87% |
| C=CC(=O)N1CCCC(n2c(=O)c3ncccc3n(Cc3ccc(Oc4ccccc4)cc3)c2=O)C1 (stereo not shown) | cell-free assay, competition with immobilised ligand |  | 1 µM |  | remaining binding | 78% |
| C=CC(=O)N1CCc2ccc(-n3c(=O)ccc4cnc5ccc(-c6cnn(C)c6)cc5c43)cc21 | KINOMEscan |  | 1 µM | relative to: DMSO control | remaining binding | 99% |
| Cc1cc(NC(=O)[C@H](O)c2cc(F)cc(F)c2)ccc1-c1cnc(N)c(C(=O)NC(C)C)c1 | binding, competition with immobilised ligand |  | 0.1 µM |  | remaining binding | 67% |
| NC(=O)C[C@H]1CCc2sc3ncnc(O[C@H]4CC[C@H](N5CCOCC5)CC4)c3c21 | enzyme activity, inhibitor |  | 10 µM |  | inhibition | 4% |
| CCN1CCN(Cc2ccc(C(=O)Nc3ccc(C)c(NCc4cnc5[nH]ccc5c4OC)c3)cc2C(F)(F)F)CC1 | binding, competition with immobilised ligand |  | 1 µM |  | remaining binding | 22% |

Excerpt of the above:
| SMILES | test | system | setting | how to read | endpoint | result |
| --- | --- | --- | --- | --- | --- | --- |
| N[C@H]1CC[C@H](Nc2nccc(-c3cccnc3Oc3ccc(NC(=O)NC4CC4)c4ccccc34)n2)CC1 | kinobead competition pulldown | HEK293/HCT116 lysate mixture | 10 µM, 1 h, 4 °C | lower = stronger competition | log2 LFQ intensity | 26.8 and 26.9 and 26.7 |
| CNC1C[S+]2CC[S+]3CC[S+](C1)[Ru-4]321([N]=C=S)[n]2c3ccc(OC)cc3c3c4c(c5cc(F)c[n+]1c5c32)C(=O)NC4=O (stereo not shown) | KinomeScan |  | 0.1 µM | relative to: untreated | remaining binding | 100% |
